Results from different studies.
Each numbered part is a random draw from the data of one study; scales do not carry over between parts. Substitutions count along the parent as printed.

Sample 1 — target: CCNB3, cyclin fold, Cln2 fusion (human); technique: yeast growth competition, sequencing; medium: yeast; notes: weak parent motif; baseline: not given; direction: higher = stronger binding
Parent: CDKN1B docking peptide (human); PSACRNLFGPVDH; partner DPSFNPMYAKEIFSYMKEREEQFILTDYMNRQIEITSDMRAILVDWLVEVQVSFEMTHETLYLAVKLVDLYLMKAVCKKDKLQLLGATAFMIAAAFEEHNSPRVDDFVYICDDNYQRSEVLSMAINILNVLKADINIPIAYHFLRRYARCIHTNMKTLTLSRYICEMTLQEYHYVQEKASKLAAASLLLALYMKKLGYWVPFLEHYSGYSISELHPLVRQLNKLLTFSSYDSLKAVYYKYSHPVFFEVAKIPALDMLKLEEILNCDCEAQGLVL
| Variant | normalised enrichment score |
| --- | --- |
| H13A | 0.337 |
| H13S | 0.0992 |
| L7W | -0.154 |
| P1G | 0.311 |
| G9P | 0.0163 |
| P10T | 0.191 |
| P1A | 0.692 |
| S2K | 0.383 |
| V11T | 0.17 |
| D12H | 0.23 |
| N6P | -0.291 |
| L7Y | 0.139 |
| F8W | 0.167 |
| D12F | 0.368 |
| N6V | 0.768 |
| D12K | 0.393 |
| D12V | 0.294 |
| V11D | 0.271 |
| V11P | 0.291 |

Sample 2 — technique: RNA Bind-n-Seq; molecule type: RNA; medium: in vitro; concentration: 365 nM; baseline: no-protein control; direction: higher = stronger binding
Target: RNA binding protein fox-1 homolog 2, RRM domain, GST-SBP tag (RBFOX2, Homo sapiens, UniProt O43251-10, residues 100-194)
Notes: natural RNA segment, single round, ends assumed
Target sequence (chain): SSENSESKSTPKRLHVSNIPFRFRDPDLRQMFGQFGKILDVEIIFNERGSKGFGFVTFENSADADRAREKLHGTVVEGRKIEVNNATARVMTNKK
| Sequence | RBNS enrichment (R) |
| --- | --- |
| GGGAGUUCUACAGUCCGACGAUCCUCCCAGGAAACCAGGCAAGGGCCCGCCAUCCUAGUGAGGCAGGCCACCGCACCUUUCCACUUCUCUUCCCCAUGAUUCCGAAGAUUGGAUUUUCCUUUUCAGGAUGCACUGGAAUUCUCGGGUGCCAA | 0.267 |
| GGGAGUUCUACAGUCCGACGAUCGAGUCACCCCUACUUCCUGGAUAGUAGGCUUUUUUAGUUGUGUGUUUUGUUUUGAGACAGUGUCUCACUUUGUAGCUGUGGCUAUCCUGGAACUCAAUCAGUAGAUGCCCUGGAAUUCUCGGGUGCCAA | 0.72 |
| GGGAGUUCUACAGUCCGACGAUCCACAGCUGCAGCCCACCGCGGACCCCCCUGGUGCUCCAGGUUGGGUGAGUCUGAGCCGGAAGGGGUACGUGGUGGGCGCCCCUCAUUGUGGCUGGGGAGACCUCAUACCCUGGAAUUCUCGGGUGCCAA | 0.498 |
| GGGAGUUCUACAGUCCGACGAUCAUAAACAUUAGUGUAUUUAUUUCCUAUGUGUUAAUAUGAAGAUCAGAAAUUAUUUUUUGCACUUUGGCAUAAAUACUUUUCAAUAUCUGAUUUGUUCUCUGGAUAAAUUAUGGAAUUCUCGGGUGCCAA | 0.364 |
| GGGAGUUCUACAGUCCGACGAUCCAUAGAUCUCCACACCUGGCUUGUAACUAUUUUGAGGCUGAAAGAGCUAAUGAAGGGCCCUGCCUAGAUCCAGACUUUCUGACAUCAAAUUAGGGAAGUGGAGGAAAUUAUGGAAUUCUCGGGUGCCAA | 0.661 |
| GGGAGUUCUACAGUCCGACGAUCGGCCAGCGGGGGGACGGAGGCGGCGGGCCCAGGAGCCUCAGCCAGCCACGUGGGCAUCCACUCCUUUUCCUGCAAGAGAUGAUGGUUCCAUUGCUCUUGGCUUCAUGGUGUGGAAUUCUCGGGUGCCAA | 0.523 |
| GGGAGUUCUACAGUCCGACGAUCCCAAUCUUUCAAAAUCUUGUCUUAGGGCUUGUGAGGAAUCAGAACUAACCCAGGACUCAGUCCUGCUUCUUUUGCCUCGAGUGAUUUUCCUCUGUUUUUCACUAAAUAAGUGGAAUUCUCGGGUGCCAA | 0.24 |
| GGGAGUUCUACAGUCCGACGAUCAGGUAAGUUAAGUAAGUUGAUUCGGUAUCCCCCCAUCUUGCUUCCCUAAUCUAUGGUCGGGAGACAGCAUCAGGGUUAAGAAGACUUUUUUUUUUUUUUUUUAAACUAGGUGGAAUUCUCGGGUGCCAA | 0.589 |

Sample 3 — target: CREB5, bZIP domain (human); technique: DHFR protein complementation; medium: yeast; baseline: wild-type JUN-FOS pair; direction: higher = stronger binding
Notes: single substitutions, most at no-binding floor
Parent: JUN, bZIP domain (human); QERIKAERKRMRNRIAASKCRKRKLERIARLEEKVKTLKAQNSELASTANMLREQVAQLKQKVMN; partner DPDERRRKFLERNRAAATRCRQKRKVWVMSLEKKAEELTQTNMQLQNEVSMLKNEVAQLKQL
| Variant | binding fitness [natural log] |
| --- | --- |
| E32D | -0.657 |
| Q55W | -0.99 |
| A46G | -0.772 |
| A29K | -0.415 |
| L45N | -1.35 |
| R30I | -0.36 |
| R53I | -1.08 |
| V35Y | -0.993 |
| T48A | -0.361 |
| S47H | -0.274 |
| Q55H | -0.535 |
| T37G | -0.346 |
| T37K | -0.239 |
| I28V | -0.282 |
| I28Q | -0.267 |
| E32A | -0.203 |
| I28Y | -0.383 |
| A57L | -0.564 |
| L45G | -1.43 |
| R30N | -0.31 |
| L31C | -1.17 |
| I28A | -0.409 |
| Q58F | -0.588 |
| L31G | -1.29 |
| E32H | -0.685 |

Sample 4 — target: OGT, full length, His-tagged (human); technique: phage display, sequencing; medium: in vitro; concentration: 1 µg OGT; baseline: input library; direction: higher = stronger binding; parent: peptide; NSEYMPQYQIIFAHQ
Notes: single substitutions, 15-mer displayed peptide, unchanged parent 16.7
| Variant | fold enrichment [fold] |
| --- | --- |
| NSEYMPQYQIIFADQ [H14D] | 4.93 |
| NSEYMQQYQIIFAHQ [P6Q] | 0.909 |
| NSEYMPQYQLIFAHQ [I10L] | 2.56 |
| NSEYMPQYQIIHAHQ [F12H] | 4.06 |
| NSEYMPYYQIIFAHQ [Q7Y] | 7.11 |
| NSEYMPQYTIIFAHQ [Q9T] | 7.02 |
| NSEYMPQYQSIFAHQ [I10S] | 0.385 |
| NSEYMPQYQIIAAHQ [F12A] | 3.15 |
| NSEYMPQYQIPFAHQ [I11P] | 2.31 |
| NSEYMPQYQIKFAHQ [I11K] | 21.4 |
| NSEYMPQYQIIFLHQ [A13L] | 9.38 |
| NSEYMPQYQIVFAHQ [I11V] | 7.56 |
| NSEYMPQYQIIFAKQ [H14K] | 18.9 |
| NSEYMHQYQIIFAHQ [P6H] | 0.951 |
| NSEYMPQSQIIFAHQ [Y8S] | 0.443 |
| NSEYMPQYQIIFAHL [Q15L] | 10.2 |
| NSKYMPQYQIIFAHQ [E3K] | 17.6 |
| NSEYMPQYQIIFAHN [Q15N] | 15.7 |
| NSEFMPQYQIIFAHQ [Y4F] | 17.3 |
| NSEYMPQLQIIFAHQ [Y8L] | 3.47 |
| VSEYMPQYQIIFAHQ [N1V] | 14.5 |
| NSEYMPQYQIIFAHP [Q15P] | 29 |
| NTEYMPQYQIIFAHQ [S2T] | 16.7 |
| NSEYMPQYQIIPAHQ [F12P] | 14.9 |
| NSEYMPQWQIIFAHQ [Y8W] | 1.46 |

A few entries again (sample 3):
| Variant | binding fitness [natural log] |
| --- | --- |
| T48A | -0.361 |
| E32H | -0.685 |
| L31G | -1.29 |
| E32A | -0.203 |
| R30N | -0.31 |
